# Results of several laboratories.
# Protocols differ between the studies behind these lines.
# Cell line: PC-3
Compound,test,setting,scale,quantity,result
Cc1cc(C)cc(COc2cc3c(cc2OCc2cc(C)cc(C)c2)[C@H]2C[C@@](O)(Cc4cn(Cc5ccc(F)cc5)nn4)C[C@@H](C)N2CC3)c1,"cell growth or viability, MTT",,,IC50,0.126 µM
[BH3-][P+]1(c2ccccc2)CCC(=O)CC1,MTT,72 h,baseline: IC50 HaCaT over IC50 PC-3,selectivity index,1
C1=[N+]2CCCC[N+]3=Cc4ccc5[n]4[Au-]23[n]2c1ccc2-c1nc2ccccc2nc1-5.F[P-](F)(F)(F)(F)F,NCI60 five-dose screen,,,TGI,4 -log M
CCCC(CCC)C(=O)OCc1cn(-c2cc3ccccc3oc2=O)nn1,NCI60 single-dose screen,10 µM,,growth percentage,91.3%
CCc1cc(N2C(=S)N(c3ccc(C#N)c(C(F)(F)F)c3)C(=O)C2(C)C)ccc1OCCN1CCN(CC(=O)Nc2cccc(NC3CCC(=O)NC3=O)c2)[C@H](C)C1 (stereo partly shown),cell proliferation,"120 h, 10% FBS",,GI50,> 10 µM
Nc1cc2cccnc2c2ncccc12.[Cl-].[Cl-].[Ru+2].c1cnc2c(c1)ccc1cccnc12.c1cnc2c(c1)ccc1cccnc12,MTT,blue light,baseline: IC50 HFF-1 over IC50 PC-3,selectivity index,0.7
CCN(C(=O)c1cc(F)ccc1Oc1nncnc1N1CCC2(C1)CN([C@H](CCCN(C)CCOC)C(C)C)C2)C(C)C,cell growth or viability,7 days,,GI50,> 10 µM
COc1cc(/C=C/C(=O)/C=C(O)/C=C/c2ccc(OCC(=O)N3CCOCCOCCOCC3)c(OC)c2)ccc1OCC(=O)N1CCOCCOCCOCC1,"cell growth or viability, SRB",25 µM,,inhibition,31.6%
[BH3-][P+]1(c2ccccc2)CCCCC1,Annexin V-FITC/PI flow cytometry,"IC50, 72 h",,late apoptotic cells,1.95%
CCCCCCC(=O)[O][Pt]([NH2])([NH2])([Cl])([Cl])[O]C(=O)CCC(C)C1CCC2C3CCC4CC(O)CCC4(C)C3CCC12C (stereo not shown),Western blot,"1 to 2 µM, 48 h, together with: cisplatin 2 µM",,Bcl-2 protein level,decreased
CCc1c(C)c2ccc(OC(C)C)c(C)c2oc1=O,"cell growth or viability, MTT",31.25 µg/mL,,viability,63.5%
C=C(NC(=O)c1csc(-c2cccnc2)n1)C(=O)NC(=C)C(=O)OC,cell growth or viability,,,EC50,26.6 µM
CN(C)CCN1CCN(c2ccc3nc(-c4ccc5nc(-c6ccc(C(F)(F)F)cc6)[nH]c5c4)[nH]c3c2)CC1,SRB,"10 µM, 48 h",,growth percent,68.4%

# For quick reference, copied from above:
Compound,test,setting,scale,quantity,result
CCCC(CCC)C(=O)OCc1cn(-c2cc3ccccc3oc2=O)nn1,NCI60 single-dose screen,10 µM,,growth percentage,91.3%
CCc1cc(N2C(=S)N(c3ccc(C#N)c(C(F)(F)F)c3)C(=O)C2(C)C)ccc1OCCN1CCN(CC(=O)Nc2cccc(NC3CCC(=O)NC3=O)c2)[C@H](C)C1 (stereo partly shown),cell proliferation,"120 h, 10% FBS",,GI50,> 10 µM
